Results collected from several papers.
Parts stem from different laboratories: compare values within a part only.

Block 1
Target: Sal-like protein 4, full length isoform A (SALL4, Homo sapiens, UniProt Q9UJQ4, residues 1-1053)
UniProt Q9UJQ4, sequence (whole entry, looked up): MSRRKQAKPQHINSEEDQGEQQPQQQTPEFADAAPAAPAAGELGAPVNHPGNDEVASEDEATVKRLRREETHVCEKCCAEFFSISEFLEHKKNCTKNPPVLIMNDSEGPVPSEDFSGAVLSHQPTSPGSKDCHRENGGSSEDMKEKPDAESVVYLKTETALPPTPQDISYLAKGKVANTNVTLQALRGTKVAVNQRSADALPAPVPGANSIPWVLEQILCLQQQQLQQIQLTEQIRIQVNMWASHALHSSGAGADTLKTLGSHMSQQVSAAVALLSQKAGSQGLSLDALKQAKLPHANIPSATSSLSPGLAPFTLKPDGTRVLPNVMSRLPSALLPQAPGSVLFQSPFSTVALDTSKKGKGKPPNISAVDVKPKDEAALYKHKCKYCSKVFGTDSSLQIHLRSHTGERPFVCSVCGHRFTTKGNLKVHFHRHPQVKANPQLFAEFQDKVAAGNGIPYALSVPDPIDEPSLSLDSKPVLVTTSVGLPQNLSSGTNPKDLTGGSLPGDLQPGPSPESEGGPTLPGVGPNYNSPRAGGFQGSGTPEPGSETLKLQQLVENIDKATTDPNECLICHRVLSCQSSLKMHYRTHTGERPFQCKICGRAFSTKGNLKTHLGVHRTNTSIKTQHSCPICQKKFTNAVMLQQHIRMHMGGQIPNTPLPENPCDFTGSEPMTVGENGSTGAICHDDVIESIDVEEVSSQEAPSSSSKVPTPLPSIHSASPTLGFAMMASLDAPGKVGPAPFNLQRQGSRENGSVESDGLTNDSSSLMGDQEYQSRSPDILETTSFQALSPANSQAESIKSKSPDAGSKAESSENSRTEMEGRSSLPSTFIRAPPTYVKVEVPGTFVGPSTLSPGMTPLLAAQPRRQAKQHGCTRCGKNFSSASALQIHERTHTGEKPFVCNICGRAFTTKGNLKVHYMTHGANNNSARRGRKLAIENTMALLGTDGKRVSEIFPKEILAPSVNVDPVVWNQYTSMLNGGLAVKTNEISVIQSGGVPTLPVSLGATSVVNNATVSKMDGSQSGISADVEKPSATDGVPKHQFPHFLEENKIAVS
Technique: universal PBM
Molecule type: double-stranded DNA, one strand shown
Medium: in vitro
Concentration: 600 nM
Notes: 8-mer, flanks averaged, mean of replicates
Direction: higher = stronger binding
Quantity: E-score
GGGCGGAA: -0.197
CCCGATCG: -0.24
ACTGGCGA: -0.271
ACCATTTC: 0.116
CGGCTTGA: -0.191
CACGAACG: -0.104
CAATGTAC: 0.0569
CGTACAAC: -0.00421
CGCCCTAG: -0.298
CGTAGAGA: -0.0196
GATGCATA: 0.15
CCTGGTAG: -0.343
ACGGTGAG: -0.127
GTCGTTCA: 0.0324
AAATTCAA: 0.32
GCACGCCC: -0.319
GCTACCCA: -0.164
CCTGCCGC: -0.441
GCTAACAC: -0.146

Block 2
Target: PABPC1L2, full length, GST fusion (mouse, UniProt A0ABA7IW68)
Technique: RNAcompete
Molecule type: RNA
Medium: in vitro
Concentration: 20 nM
Notes: 7-mer, probes averaged, single round
Baseline: mean of 7-mers
Direction: higher = stronger binding
Quantity: 7-mer Z-score
Residues (chain): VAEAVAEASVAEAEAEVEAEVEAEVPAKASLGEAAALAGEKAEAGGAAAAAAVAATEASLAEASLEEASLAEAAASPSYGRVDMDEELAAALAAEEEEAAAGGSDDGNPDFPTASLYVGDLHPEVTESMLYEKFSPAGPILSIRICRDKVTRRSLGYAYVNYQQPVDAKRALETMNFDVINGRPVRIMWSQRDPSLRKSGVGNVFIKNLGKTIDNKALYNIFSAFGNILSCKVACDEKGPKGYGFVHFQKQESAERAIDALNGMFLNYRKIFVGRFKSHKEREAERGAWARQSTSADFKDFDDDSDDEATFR
CGUUUGC: -0.537
UGAGGUA: -0.119
CGUAAUC: -0.398
CAUUUCU: -0.358
GAUUGGG: 0.0823
GCUCGCC: -0.44
GAUGACG: -0.0428
AUCCCCU: -0.429
ACGAUGG: 0.122
UCGCAUU: -0.476
UCUAACG: -0.318
AUUGUAC: -0.229
GUCGGCC: -0.246
GGGGGGG: 0.296
GAAUUUG: -0.315
GGACCCU: -0.11
GUUCACA: -0.333
UUCCCUA: -0.284
GAAUACA: 0.157
AUGUGCU: -0.0971
UGCAAAU: -0.0754
ACACUGU: -0.139
CGCAAGU: -0.365
UGUACAC: -0.278
UGCCGAU: -0.171

Block 3
Target: Ras GTPase-activating protein-binding protein 1, RRM domain (G3BP1, Homo sapiens, UniProt Q13283)
UniProt Q13283, sequence (whole entry, looked up): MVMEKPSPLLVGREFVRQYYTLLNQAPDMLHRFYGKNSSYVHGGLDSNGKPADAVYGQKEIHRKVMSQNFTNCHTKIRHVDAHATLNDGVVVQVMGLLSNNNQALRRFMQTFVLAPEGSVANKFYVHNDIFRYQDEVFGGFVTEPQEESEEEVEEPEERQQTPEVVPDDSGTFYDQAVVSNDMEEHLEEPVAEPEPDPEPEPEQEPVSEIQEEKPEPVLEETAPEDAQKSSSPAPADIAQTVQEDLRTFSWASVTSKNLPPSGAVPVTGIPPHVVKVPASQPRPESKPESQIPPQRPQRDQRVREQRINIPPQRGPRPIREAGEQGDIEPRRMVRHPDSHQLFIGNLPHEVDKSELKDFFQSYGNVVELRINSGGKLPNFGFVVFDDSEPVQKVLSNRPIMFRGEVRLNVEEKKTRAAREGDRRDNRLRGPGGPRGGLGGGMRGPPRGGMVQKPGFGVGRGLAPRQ
Technique: RNA Bind-n-Seq
Molecule type: RNA
Medium: in vitro
Concentration: 1 µM
Notes: whole 134-nt RNA, ends assumed
Added: 150 mM KCl
Baseline: input library
Direction: higher = stronger binding
Quantity: log2 enrichment
Constant ends, left off below: GGGAGUUCUACAGUCCGACGAUC … UGGAAUUCUCGGGUGUCAAGG
UAACUUUAGAGGAGGAUCUGAUGGAUAUGGCAGUGGACGUGGAUUUGGGGAGGGCUAUAAUGGGUAUGGAGGAGGACCUGGAGGUGGCAA: -0.178
UGGGAGGUGGAUUUUGUUUAUUUUUUUAGCUCACUUCCAGGGGUGGGAAUUUUUUUUUAAUAUGUGUCAUGAAUAAAGUUGUUUUUGAAA: 1.7
UGGGAGACGAUCGCGAUGAACACGGUGCUGUCGCGGGCGAACUCACUGUUCGCCUUCUCGCUGAGCGUGAUGGCGGCGCUCACCUUCGGC: -0.612
AAGUCCUGUGCUACACAUCGUAUGUACCGAAUCGGGAAAAAAAGGGAAAGGGUGGGAAAGUAUUAUGUUACGCCGUUCGGAUCUGCACUU: 0.798
CUGUGCUACACAUCGUAUGUACCGAAUCGGGUUUUUUUGGGUUUUUUUGGGGUUUUUUUGGGAAAGUAUUAUGUUACGCCGUUCGGAUCU: -0.157
UGCGCCAACCUAGGCUUUCUUCUUCCUCUCCUCUUUAUAGGCGGAGUCGAUCUCCCAAAAGGAGAAGGUAGGCCUUCAGUCAUUUGUGAU: -0.173
UGGCCCUGGUGGCAUGCGGGAAGGAAGAGGUGGCCUCAUGGAUCGUGGUGGUCCCGGUGGAAUGUUCAGAGGUGGCCGUGGUGGAGACAG: 0.952
UCAAGUCCUGUGCUACACAUCGUAUGUACCGAAUCGGGGCGGGGCGGGGCGGGGAAAGUAUUAUGUUACGCCGUUCGGAUCUGCACUUCC: 0.656
AAGUCCUGUGCUACACAUCGUAUGUACCGAAUCGGGUUUUGGGGUUUUGGGUUUUGGAAAGUAUUAUGUUACGCCGUUCGGAUCUGCACU: -0.148
CCUGUGCUACACAUCGUAUGUACCGAAUCGGGGUGGGGUUUUUUUGGGGUUUUUUUGGGGAAAGUAUUAUGUUACGCCGUUCGGAUCUGC: 0.444
ACCAUGCAGGUGGGCAUCUUUGGGAAGUGGGGCAAGGGGGGGAUAGGGAGGGGGGUAGCACUUUGGGAACAGGUGGUCCCAGGUCGUUUC: 0.939
CUCAAGUCCUGUGCUACACAUCGUAUGUACCGAAUCGGGGUGGGUGGGUGGGGAAAGUAUUAUGUUACGCCGUUCGGAUCUGCACUUCCA: 1.27
UUUGGAGAAGGAACCCCACUCUCCAGCUGACCAGCCUGAACAACAGGCAGAAUCCACUUUGACAUCAGCUGAGACUAGGGGAAGCAAGAA: -0.177
CAAGUCCUGUGCUACACAUCGUAUGUACCGAAUCGGUUUUGGGUUUUGGUUUUGGAAAGUAUUAUGUUACGCCGUUCGGAUCUGCACUUC: -0.221

Block 4
Target: RING finger protein unkempt homolog, zinc fingers 1-6, GST-SBP tag (UNK, Homo sapiens, UniProt Q9C0B0, residues 30-357)
UniProt Q9C0B0, sequence (30-357, looked up): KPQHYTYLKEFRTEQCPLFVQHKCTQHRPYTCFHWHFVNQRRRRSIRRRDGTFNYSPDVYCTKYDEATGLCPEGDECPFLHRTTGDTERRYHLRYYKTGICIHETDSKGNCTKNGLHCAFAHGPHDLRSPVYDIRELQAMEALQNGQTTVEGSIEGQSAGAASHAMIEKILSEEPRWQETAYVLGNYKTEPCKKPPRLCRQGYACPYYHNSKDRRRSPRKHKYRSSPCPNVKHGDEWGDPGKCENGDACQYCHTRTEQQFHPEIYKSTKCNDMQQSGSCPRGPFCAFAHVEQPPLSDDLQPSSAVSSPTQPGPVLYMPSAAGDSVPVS
Technique: RNA Bind-n-Seq
Molecule type: RNA
Medium: in vitro
Concentration: not given
Notes: RNA with constant flanks, human and mouse sites, ends assumed
Baseline: input RNA pool
Direction: higher = stronger binding
Quantity: bound/input enrichment
Constant ends, left off below: GGGAGUUCUACAGUCCGACGAUC … CAACAGAGGAUUGAGCAUCA
UCGGAAAUGCCGCUUUUGACUUCAACUAAUGAAUUUUAUACUAAAGGGAUGACACCAGUUCAAGACAAGGAGGAAGGAAAGAAUUCAUCUAAGUGUUACAUACAGGUCACUGGCAUGACU: 0.295 ratio
UAGCCUGAGUAUACAAUCAAGCUUCAGUGUGCAACCUUUUUUUCUUUUGCCAUUUUCUAUUUUAGUAAUUUCCUUGGGGAACUAAAUAAUUUUGCAGAAUUUUUCCUAAUUUUGUUUAUC: 2.11 ratio
GGGAUUUACAUGGUUUAUUGUCGAAAACACAAGAAAACUGCACAUAACUCGGAAGCUGAUUUAGAAGAAAGUUUUAAUGAGCAUGAACUGGAGCCCUCAUCUCCAAAGACUAAGAAGAAA: 0.451 ratio
UUCAAGCUAGAUCAGCAAGAGUCACGGAUAAUGGAUGAAGAAUGCCUAAGUCAAAACUUUUUAGAGAUCUGGCUAGACAGUUAUUCUGAACUAUGGCUUCAAGAUGAACAAGACAAGCCU: 0.137 ratio
GGGAAACAGUUUGAUUCUCCCAUGCCAAGUCCCUUUCAAGGGGGAAGCUUCACUCUUCCUUUAGAUGUCAUGAAGAAUGAAAUAGUUACAGAAACAUCGCCCUUUGCCCCUGCCUUUUUA: 0.429 ratio
AGCAGGAAGGGCCUCAUAGCUGCCAUCUGUGCAGGUCCUACGGCUCUGUUGGCUCACGAAGUAGGUUUUGGAUGCAAGGUCACAACACACCCACUGGCUAAGGACAAAAUGAUGAAUGGC: 1.7 ratio
CUUGCAGUGAGGAAAAGAACCAUUAUCGCUCUUGGCCAUCUGGUUAUGAGCUGUGGAAAUAUAGUUUUUGUAGAUCUUAUUGAACAUCUGUUGUCAGAGUUGUCCAAAAAUGAUUCUAUG: 0.995 ratio
UUUUCAUGCCCGGCCUUUGUUCCUCCAUAAAUGUGUCCUUUAGUUUCAAACAGAUCUUUAUAGUUCGUGCUUCAUAAGCCAAUUCUUAUUAUUAUUUUUGGGGGACUCUUCUUCAAAGAG: 7.2 ratio
AAUACAGUUUUUCAUUCUAUUCUUGCUGGAUUAGCGUGUGGUCUUGGAACAUGGUAUCUGCUCCCAAAUAGAAUAACCUUGCUGUAUGGCAGUACAGGAGGCACUGCUCUACUAUUCUUC: 0.756 ratio
AAUGUAGCUUUGACUUUCUGGAGAAAGAGAAGUAUAAGUGAACUUGUAGCUUAUUUAGUGAGGAUAGAAGACCUUGGAGUUGUGGUAGAUUGCCUUCCUGUUCUAACCAAUAGUUUACAG: 1.27 ratio
UCUGACAUUUCUACGCUUGGACACCUGGUAGUAACCACUCAGGGAGGAUACGUGAAAGUAUUAGACCUUUCAAACUUCGAAAUUUUGGCCAAAGUGGAGCCUCCCAAAAAGGAGGGCACU: 0.31 ratio

Block 5
Target: Histone acetyltransferase KAT6A, winged helix 1, GST fusion (KAT6A, Homo sapiens, UniProt Q92794, residues 1-85)
Technique: protein binding microarray
Molecule type: double-stranded DNA, one strand shown
Medium: in vitro
Concentration: not given
Notes: 8-mer, flanks averaged, mean of 2 arrays, mostly near background
Baseline: not given
Direction: higher = stronger binding
Quantity: E-score
Target sequence (chain): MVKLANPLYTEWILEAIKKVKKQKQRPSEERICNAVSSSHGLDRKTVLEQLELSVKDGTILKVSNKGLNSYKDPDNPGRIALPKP
ACGTGCAG: -0.123
TAGAGCGA: 0.00799
GATCGATC: -0.105
TAGGGTAA: -0.158
ACACCCCG: 0.222
CAAGCGCA: 0.184
CCGCGTGA: 0.323
CACGGGGC: 0.204
ACACCTCG: 0.071
CTCTTCGA: 0.0815
GCATGGGC: -0.0294
ATGCAACA: -0.298
GACAACTC: -0.181
ATCCATAG: -0.0117
GTTACGAA: -0.0316
TGCGACAA: -0.0171
AGGGAACT: -0.173
AGTGCTGC: 0.0364
AAGGCCGA: 0.213

Block 6
Target: RNA binding protein fox-1 homolog 2, RRM domain, GST-SBP tag (RBFOX2, Homo sapiens, UniProt O43251-10, residues 100-194)
Technique: RNA Bind-n-Seq
Molecule type: RNA
Medium: in vitro
Concentration: 365 nM
Notes: natural RNA segment, single round, ends assumed
Baseline: no-protein control
Direction: higher = stronger binding
Quantity: RBNS enrichment (R)
Constant ends, left off below: GGGAGUUCUACAGUCCGACGAUC … UGGAAUUCUCGGGUGCCAA
Target sequence (chain): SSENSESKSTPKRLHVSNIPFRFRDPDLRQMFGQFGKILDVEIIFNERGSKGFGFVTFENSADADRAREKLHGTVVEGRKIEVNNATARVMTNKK
GCUUGAAUUUUAACCAUUUAUUACAUAAUCUCUAGUGAUCAUGCAUCUAGUUAUCAUAAGAAAUAAUUUAAAAGGUUUUGUUGCUGAAAGCAGUAAGUGGUGCAGUAAAA: 0.914
GAGCACUUGGUGGCAUCAGAGCAGGAGGAGCCCCAGAGCCACCUCUGGUGUCCCCCCAGGCUACCUGCUCAGGAACCCCUUCUGUUCUCUGAGAAGUCAAGAGAGGACAU: 0.26
UUUCAACCUUGACUCGUAAAUACUUCCCUCUGCAUGGGGGUGAUCGUAGAGAGAAUCAAGGCUACCAUGUGUUUUCUCAUGAGUCAGAAGAUGGCUCAGGAAGCCACUGU: 0.39
GGCCAGCAAUGUAUUCCGGGGAUGUAUUCUGGGGUCUGAGGGCCCUGGCCCAUUCUGAGAAAUGGAGCUGUAGCUAUGGCCUAGCCAGCACCCCCAGUGCUCGCUCAUGG: 0.242
UCUAGAUGCACAAUCCAAUACAGUGGCCUCGUGUGGCUGUAUAACUCGGUUCACUUCAGACUACGUGAUUGGAAGUCAUUCCUCGGUUGCACUAGCCACACAAAAUGCUC: 0.254
AAAACUGAGUUCGAUGAAAGAAGAAAUCAAAAGGACACGCGCUGUAAAUGUAUAAAUGUAUAUUGUGUUGUAUGUAUAUUUUAUAUUUAUAAUAAAUGCAAACUAAUUCU: 0.979
AAGAGCUUAACUUUGUCUUUUGGGUGAGUAGCUAUAGGUUUGAGAGAGGCUGGCUACUCCUAGUUCCUGUGCUUCUUCCCAUCUCCUGUGAUCCCCCUCUCCCAUUUAUU: 0.288
AGCCUCACCCGUCAUUUCAUUCUCUAUCCACUGUCUGUCACCUCCAGCAUGGAAAGGUUCAGCUGGAGACAUUUCUGAAACAGACUACUUUACUUUGAAGCAAACGUCUU: 0.785
CAAGAAUAAAAGCCUCUAUGAUCCAGAGUUGCUAUGCACCAAAUUUUGAUGCCUUUUAAAUACCUUGAUGCCUAUAGCAUUAGAAAUGCUUUCCUAUUUAAAACAGGUUA: 0.546
AUCCCAGGCCCUGUGCGGAGCAUCGGGAAUACAAAGAUGAGAUAAAACAUUGUCCCUGCCCCCGGGGGCUCACAUGCCACUGGAAACAACAGACUCUUAAACUAACAAUU: 0.244
AGGGGUGUAGGUUCGAGGAAGGAGAACAUCAUUGGAAUGGAGGAGAGUGCUGCAGAGUCUAUGUCUGCUGACCACCUGUGCUACCACUUAACAAUGAGCAUAGCUGGUCU: 0.775
GAUUAUAGUCUUGAGGUUCAUGUGAAGCCAGUGGUGUUAACUUACUUUGAUUUCCUUGUUCAGGUCAGGGCCUGGAACGCCUGUGCGGGGAGGUCACUCAAUUCAAAAUU: 0.699

For quick reference, copied from above (block 5):
ACACCCCG: 0.222
CAAGCGCA: 0.184
CCGCGTGA: 0.323
CACGGGGC: 0.204
ACACCTCG: 0.071
CTCTTCGA: 0.0815
GCATGGGC: -0.0294
